# Published values gathered from unrelated publications.
# A part holds a random share of what one study measured.

# Study 1 — technique: Sort-seq; item: YFP reporter; matrix: E. coli; setting: PhoQ-PhoP variant library; together with: 10 µM Mg2+; reference: high Mg2+ state; direction: higher = stronger signaling
# Substance: PhoQ, residues 284 288 289 292 302 303 SVHLDV
target,fold induction
"PhoP, residues 12 14 15 18 19 LHHYF (Escherichia coli, UniProt P23836)",4.73
"PhoP, residues 12 14 15 18 19 TPWTL (Escherichia coli, UniProt P23836)",1.66
"PhoP, residues 12 14 15 18 19 VGHWL (Escherichia coli, UniProt P23836)",2.25

# Study 2 — technique: aptamer microarray, sandwich; molecule type: DNA with 2'F-ANA; matrix: in vitro; concentration: 200 nM; together with: Cy3 exosite-II aptamer, 400 nM; direction: higher = stronger binding; oligonucleotide: GGTTGGTGTGGTTGG
# Target: Prothrombin, mature alpha-thrombin (F2, Homo sapiens, UniProt P00734)
# Setting: whole 15-mer aptamer, many near background
Modification,mean fluorescence intensity [a.u.]
2'F-ANA at 2 3 4 5 6 7 8 10 12 13 14,55.3
2'F-ANA at 1 2 3 6 7 9 10 11 12 13,108
2'F-ANA at 2 6 7 8 9 12 13 14,149
2'F-ANA at 2 3 4 8 10 11 14,169
2'F-ANA at 1 3 6 12 13,451
2'F-ANA at 2 4 7 11 13 14 15,100
2'F-ANA at 3 6 8 9 11 12 14,546
2'F-ANA at 2 3 6 7 8 10 11 12 15,343
2'F-ANA at 1 3 4 5 6 8 10 12 13 14,46.6
2'F-ANA at 2 3 6 7 9 14,352
2'F-ANA at 3 7 9 13 14,648
2'F-ANA at 2 3 4 5 6 7 8 11 12 14 15,56.5
2'F-ANA at 1 2 3 5 6 7 8 10 11 12 13,65.3
2'F-ANA at 2 5 7 8 10 12 13 15,57
2'F-ANA at 1 4 5 8 10 12 13,53.5
2'F-ANA at 1 6 7 11 15,141
2'F-ANA at 3 4 6 7 8 11 12,779
2'F-ANA at 1 2 4 6 9 12 14 15,58.8
2'F-ANA at 2 3 4 7 10 11 15,232
2'F-ANA at 3 7 8 9 13 15,897
2'F-ANA at 2 3 4 12 13 15,703
2'F-ANA at 3 4 5 8 9 10 14 15,72.8

# Study 3 — technique: protein-binding microarray; molecule type: double-stranded DNA, one strand shown; matrix: in vitro; concentration: 250 nM; setting: 60-bp whole probe; together with: salmon DNA 0.4 mg/ml; reference: random background probes; direction: higher = stronger binding; shared flanks, not repeated: GCCTAGCAC … GTCTTGATTCGCTTGACGCTGCTG
# Target: Interferon regulatory factor 5, full length, phosphomimetic (IRF5, Homo sapiens, UniProt Q13568-2, residues 1-514, K96S/S451D/S453D/S456D/S462D)
Oligonucleotide,log fluorescence [z-score]
ACTTAAACTAGAAACTGACTTGTGCTA,0.752
TTAGAACTCGGGTTTCGATTAGTGCTA,6.66
TCATAATTCCTGCCTGAGACTGTGCTA,0.481
TTAGGTATCGGGACTGGGGTAGTGCTA,1.67
CCATACTTCCCACTGGTCTTGTGCTAG,0.17
GACAGTATCGGTTTCGGGACGTGCTAG,10.1
TTGGATTCCAGTTTCGATTAGTGCTAG,9.76
TTAGAACTGGGGTATCGATCAGTGCTA,1.83
GCCGGTCTCGGTCTCGGGACGTGCTAG,0.387
GACGAACTGAGTTTCAAGACGTGCTAG,0.432
TGCTGTGTGCATCTATCTTAGTGCTAG,-0.411
TTAGATTCCCTTTTCCTTTAGTGCTAG,0.865
GACGGTATCGGGTTTCGAGACGTGCTA,4.06
GTCCCCTGTCGGGAGGTCAGGTGCTAG,-0.475
GCTCCTTTTAATTTTTAACGGTGCTAG,0.606
AGAGTCACCCATCTCAGCAAGTGCTAG,-0.598
GGCGGTTTCCTTATCCTGACGTGCTAG,0.489
TTAGAACTGGGGTCTCGATTAGTGCTA,-0.0584
TTAGGTTTCCTTTTCCTTTTGTGCTAG,2

# Study 4 — technique: RNA Bind-n-Seq; molecule type: RNA; matrix: in vitro; concentration: 200 nM; setting: whole 134-nt RNA, ends assumed; together with: 150 mM LiCl; reference: input library; direction: higher = stronger binding; library: 7-deaza-guanosine replaces G
# Target: Ras GTPase-activating protein-binding protein 1, full length (G3BP1, Homo sapiens, UniProt Q13283)
# UniProt Q13283, sequence (whole entry, looked up): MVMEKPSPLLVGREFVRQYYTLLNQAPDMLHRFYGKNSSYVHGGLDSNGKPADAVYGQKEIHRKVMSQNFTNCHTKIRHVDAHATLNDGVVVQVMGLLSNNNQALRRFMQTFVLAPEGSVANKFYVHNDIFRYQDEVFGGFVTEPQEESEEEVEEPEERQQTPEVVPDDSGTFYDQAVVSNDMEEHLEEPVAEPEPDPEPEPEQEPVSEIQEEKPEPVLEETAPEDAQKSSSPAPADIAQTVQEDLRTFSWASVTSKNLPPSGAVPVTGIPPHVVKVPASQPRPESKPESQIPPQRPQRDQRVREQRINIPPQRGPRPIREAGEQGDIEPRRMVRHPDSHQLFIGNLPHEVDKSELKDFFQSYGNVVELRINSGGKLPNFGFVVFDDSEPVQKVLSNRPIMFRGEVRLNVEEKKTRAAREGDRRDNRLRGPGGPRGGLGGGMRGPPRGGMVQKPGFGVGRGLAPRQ
Oligonucleotide,log2 enrichment
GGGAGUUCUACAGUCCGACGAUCAGUCCUGUGCUACACAUCGUAUGUACCGAAUCGGUUUUUGGGUUUUUGGUUUUUGGGAAAGUAUUAUGUUACGCCGUUCGGAUCUGCACUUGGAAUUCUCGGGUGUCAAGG,-0.994
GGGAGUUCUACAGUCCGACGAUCGCAGGAAGUAAAAACAAAUGGAAAUGCUUCGGAUAGUGGCAGGGGUGGGGGUUGCUAAGUAAAGGGUGGGAUGGGAGUGGGUAAAGAGUUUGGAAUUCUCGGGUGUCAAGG,0.16
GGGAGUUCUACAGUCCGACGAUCUGGGAGGUGGAUUUUGUUUAUUUUUUUAGCUCAUUUCCAGGGGUGGGAAUUUUUUUUUAAUAUGAGUCAUGAAUAAAGUUGUUUUUGAAAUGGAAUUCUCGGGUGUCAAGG,0.171
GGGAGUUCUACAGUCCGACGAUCCACAGACAACACGCACCCACACAGACACAGAGGGUAGGGGUUGGGAUGGGGACAGGGUGCACAGCAGGGCGGGGUAGGACCCCAGCCCCUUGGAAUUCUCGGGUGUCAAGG,-0.678
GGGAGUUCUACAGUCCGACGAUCGCAGGAAGUAAAAACAAAUGGAAAUGCUUCGGAUAGUGGCAGGGGUGUGGGUUGCUAAGGAAAGGGUGGGAUGGGAGUGGGUAAAGAGUUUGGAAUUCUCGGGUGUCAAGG,0.242
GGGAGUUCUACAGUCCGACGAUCGUCCUGUGCUACACAUCGUAUGUACCGAAUCAAAUUUUUAAACCCCCCCAAACCCAAAAAAGUAUUAUGUUACGCCGUUCGGAUCUGCACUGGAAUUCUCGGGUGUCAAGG,0.82
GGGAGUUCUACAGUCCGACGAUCUCCUGUGCUACACAUCGUAUGUACCGAAUCGGGGUUUUUUUGGGGUUUGGGGAAAGGGGAAAGUAUUAUGUUACGCCGUUCGGAUCUGCAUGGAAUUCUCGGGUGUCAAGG,0.00442
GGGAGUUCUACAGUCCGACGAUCUGGGAGGUGGAUUUUGUUUAUUUUUUUAGCUCAUUUCCAGGGGUGGGAAUUUUUUUUUAAUAUGUGUUAUGAAUAAAGUUGUUUUUGAAAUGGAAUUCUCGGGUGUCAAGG,-0.404
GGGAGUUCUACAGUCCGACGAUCUCCUGUGCUACACAUCGUAUGUACCGAAUCGGGCCCCCGGGGCCCCCGGGGCCCCCGGGAAAGUAUUAUGUUACGCCGUUCGGAUCUGCAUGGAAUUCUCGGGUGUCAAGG,-2.07
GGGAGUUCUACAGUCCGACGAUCUCCUGUGCUACACAUCGUAUGUACCGAAUCGGUUUUUUUGGUUUUUUUGGGUUUUUUUGGAAAGUAUUAUGUUACGCCGUUCGGAUCUGCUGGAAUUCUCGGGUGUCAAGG,-0.0446
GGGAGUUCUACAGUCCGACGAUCGUGCUGGCUGGCCACGGUCACCUGUAUUCCCGCAUCCCAGGCCUGCUCAGCCCCCAUCCCCUGCUGCAGCUGAGCUACACGGCCACCGACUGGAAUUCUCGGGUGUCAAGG,-0.571

# Repeated from above (study 2):
Modification,mean fluorescence intensity [a.u.]
2'F-ANA at 3 7 9 13 14,648
2'F-ANA at 2 3 4 8 10 11 14,169
2'F-ANA at 2 3 4 5 6 7 8 10 12 13 14,55.3
